Measured values pooled from the literature.
A part holds a random share of what one study measured.

Study 1 — action: inhibitor; concentration: 20 µM
Target: Replicase polyprotein 1ab, nsp13 helicase (rep, Severe acute respiratory syndrome coronavirus 2, UniProt P0DTD1)
With Cc1noc(-c2ccc(-c3ccc(CC(=O)O)cc3)cc2)c1NC(=O)O[C@H](C)c1ccccc1 the inhibition was -4.76%.
O=C(/C=C/C=C/c1ccc2c(c1)OCO2)N1CCCCC1 gave an inhibition of 0.16%.
For CN(C)C(=O)N[C@H]1CC[C@H](CCN2CCN(c3cccc(Cl)c3Cl)CC2)CC1, the inhibition was 8.77%.
COC(=O)N[C@@H](C)CNc1nccc(-c2cn(C(C)C)nc2-c2cc(Cl)cc(NS(C)(=O)=O)c2F)n1 has an inhibition of 4.96%.
NCCc1cc(O)c(O)cc1O gave an inhibition of 43.6%.
NCCCCCC(=O)O has an inhibition of 5.55%.
The inhibition of NCC(=O)CCC(=O)O is reported as 6.93%.
Nc1cccc(-c2cc3c(Oc4cccc(O)c4)ncnc3[nH]2)c1 gave an inhibition of 2.42%.
With C[N+](C)(C)CCCCCCCCCC[N+](C)(C)C the inhibition was -6.14%.
COc1cc(C[C@H](C)[C@H](C)Cc2ccc3c(c2)OCO3)ccc1O has an inhibition of 0.93%.
With CC(C)(C#N)c1ccc(N2C(=O)OCc3cnc4ccc(-c5cnc6ccccc6c5)cc4c32)cc1 the inhibition was -0.09%.
CCN(C(=O)c1c(O)c2c(Cl)cccc2n(C)c1=O)c1ccccc1 gave an inhibition of 2.41%.
C=Cc1c(C)c2cc3nc(c(CC(=O)O)c4[nH]c(cc5nc(cc1[nH]2)C(C)=C5CC)c(C)c4C(=O)O)[C@@H](CCC(=O)O)[C@@H]3C gave an inhibition of 80.5%.
With Nc1ccc(-c2ccc3ncc4ccc(=O)n(-c5cccc(C(F)(F)F)c5)c4c3c2)cn1 the inhibition was 9.43%.
CN1Cc2c(C(=O)OC(C)(C)C)ncn2-c2ccsc2C1=O has an inhibition of 7.22%.
The inhibition of Nc1ccc(C(=O)NCC(=O)O)cc1 is reported as 6.7%.
Cc1nc2c(O)cccc2c(=O)[nH]1 gave an inhibition of -2.38%.
C[C@@H](O)[C@H]1C(=O)N2C(C(=O)O)=C(SCCNC=N)C[C@H]12 has an inhibition of -0.48%.
With CCCN(CCC)C(=O)C(CCC(=O)OCCCN1CCN(CCOC(=O)Cc2c(C)n(C(=O)c3ccc(Cl)cc3)c3ccc(OC)cc23)CC1)NC(=O)c1ccccc1 (centres unmarked) the inhibition was -2.6%.
C=C[C@@]1(C)CC(=O)[C@]2(O)[C@@]3(C)[C@@H](O)CCC(C)(C)[C@@H]3[C@H](OC(=O)CCN(C)C)[C@H](OC(C)=O)[C@@]2(C)O1 has an inhibition of 3.34%.
N[C@H](C(=O)O)c1ccc(O)cc1 gave an inhibition of -3.46%.
For O=Nc1c(-c2c(O)[nH]c3cc(Br)ccc23)[nH]c2ccccc12, the inhibition was 10.6%.
CN[C@H](CC(C)C)C(=O)N[C@H]1C(=O)N[C@@H](CC(N)=O)C(=O)N[C@H]2C(=O)N[C@H]3C(=O)N[C@H](C(=O)N[C@H](C(=O)O)c4cc(O)cc(O)c4-c4cc3ccc4O)[C@H](O[C@H]3C[C@](C)(N)[C@@H](O)[C@H](C)O3)c3ccc(c(Cl)c3)Oc3cc2cc(c3O[C@@H]2O[C@H](CO)[C@@H](O)[C@H](O)[C@H]2O[C@H]2C[C@](C)(NCc3ccc(-c4ccc(Cl)cc4)cc3)[C@@H](O)[C@H](C)O2)Oc2ccc(cc2Cl)[C@H]1O gave an inhibition of 89.3%.
With O=C(CC(c1ccccc1)c1ccccc1)N1CCN(C(c2ccccc2)c2ccccc2)CC1 the inhibition was -1.87%.
The inhibition of CC(=O)N(CC(O)CO)c1c(I)c(C(=O)NCC(O)CO)c(I)c(C(=O)NCC(O)CO)c1I (mixture of isomers) is reported as -0.96%.

Study 2 — method: RNA Bind-n-Seq; form: RNA; sample: in vitro; concentration: 365 nM; baseline: no-protein control; direction: higher = stronger binding
Target: RNA binding protein fox-1 homolog 2, RRM domain, GST-SBP tag (RBFOX2, Homo sapiens, UniProt O43251-10, residues 100-194)
Notes: natural RNA segment, single round, ends assumed
`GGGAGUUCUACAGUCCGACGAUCAGAAUUGUGAUCUUCACCUUCUAAUUGAUUCUUUUUAAAAAAAGAAUUCCUAUAUUUUCAGUGGAUUCAAACUCUUUCUGAGGUUUUAAUGCGUGAAAGGAGCAGAGAAAUGGAAUUCUCGGGUGCCAA` — result for “RBNS enrichment (R)”: 0.531.
For `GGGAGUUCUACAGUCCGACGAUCUGCUGCUGGGUGUGCAGCUGCCACAGACUCCAAAGGCGUAGAAGUUUGUGCCAACACACGGAGUCAUUCUGGCUCUCUGCUGAGGCCCCUGUUUUCUGGCAGGUGCCCUCUGGAAUUCUCGGGUGCCAA`, “RBNS enrichment (R)” read 0.558.
Under “RBNS enrichment (R)”, `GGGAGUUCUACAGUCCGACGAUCGAAGCUGGCUGUUUAAGGGAACCCAGAAGUGAAUUCUUUUGUAAAGUAAAGCACCCUUUUGUAAUGCAAUUAAUUAUCCCUUAAUGUAUCUGUUUUGUAAGUCUGCAUUUUGGAAUUCUCGGGUGCCAA` is recorded as 0.792.
`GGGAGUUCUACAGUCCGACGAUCAGGACAAGGGCCCAGAACUGAAACUUGAUCUUAAAAUUUACCAUGGAAAUGAGGUCUUAGGCUCUUCUUUAAAUGUGUGUACUUUUAUCUGUGAGAGACUGACUAUAGCAUGGAAUUCUCGGGUGCCAA`: “RBNS enrichment (R)” 3.32.
`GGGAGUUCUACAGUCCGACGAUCAAAUAUUUGUUUGUAAAUGAAAGUUUAGCUAGUGCUUAAAUAAACAUGUGCUAUGAAUUGUUUCUAUAUACUAGUCUUUUUCUAAUUGUAAGAAAAUUCCAGUAUUGGCAUGGAAUUCUCGGGUGCCAA` — result for “RBNS enrichment (R)”: 1.18.
For `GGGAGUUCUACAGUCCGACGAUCACUUCUAACUUUGCUCCAAGCCACUCUCUUUUUAAACAGCAACAAUUUAAAGCUAUGAAGUCACCUGGAGAAAAGGAACGUUGCUCUUGGACAGCAAGCAAACCAUUUCUUGGAAUUCUCGGGUGCCAA`, “RBNS enrichment (R)” read 0.567.
`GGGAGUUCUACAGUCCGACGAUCGAAGCUUUGGCAGCCUUCUGGAACGUCCCUCAUCCCCAGAAUCUCCCUUCUUACCCGAGUGCCUCCUGCUUCCUCCGAGGCCCAGGGGGACUCAUAUCCAAUGGCUCCUAUGGAAUUCUCGGGUGCCAA` — result for “RBNS enrichment (R)”: 0.692.
`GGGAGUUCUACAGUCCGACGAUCUGGCCCCACCCCAGCUCUCUUUCUCUGGGGUACUUAGGGAGAGGAUCCUUCCUCUCCGAGGAUCCUCAUUAUAUACCUAGUAGGAAGGACUCUGAACUCAGAGCAGUCACUGGAAUUCUCGGGUGCCAA` — result for “RBNS enrichment (R)”: 0.396.

Study 3 — method: universal PBM; form: double-stranded DNA, one strand shown; sample: in vitro; concentration: 600 nM; direction: higher = stronger binding
Target: Sal-like protein 4, full length isoform A (SALL4, Homo sapiens, UniProt Q9UJQ4, residues 1-1053)
Chain of UniProt Q9UJQ4 (whole entry, looked up): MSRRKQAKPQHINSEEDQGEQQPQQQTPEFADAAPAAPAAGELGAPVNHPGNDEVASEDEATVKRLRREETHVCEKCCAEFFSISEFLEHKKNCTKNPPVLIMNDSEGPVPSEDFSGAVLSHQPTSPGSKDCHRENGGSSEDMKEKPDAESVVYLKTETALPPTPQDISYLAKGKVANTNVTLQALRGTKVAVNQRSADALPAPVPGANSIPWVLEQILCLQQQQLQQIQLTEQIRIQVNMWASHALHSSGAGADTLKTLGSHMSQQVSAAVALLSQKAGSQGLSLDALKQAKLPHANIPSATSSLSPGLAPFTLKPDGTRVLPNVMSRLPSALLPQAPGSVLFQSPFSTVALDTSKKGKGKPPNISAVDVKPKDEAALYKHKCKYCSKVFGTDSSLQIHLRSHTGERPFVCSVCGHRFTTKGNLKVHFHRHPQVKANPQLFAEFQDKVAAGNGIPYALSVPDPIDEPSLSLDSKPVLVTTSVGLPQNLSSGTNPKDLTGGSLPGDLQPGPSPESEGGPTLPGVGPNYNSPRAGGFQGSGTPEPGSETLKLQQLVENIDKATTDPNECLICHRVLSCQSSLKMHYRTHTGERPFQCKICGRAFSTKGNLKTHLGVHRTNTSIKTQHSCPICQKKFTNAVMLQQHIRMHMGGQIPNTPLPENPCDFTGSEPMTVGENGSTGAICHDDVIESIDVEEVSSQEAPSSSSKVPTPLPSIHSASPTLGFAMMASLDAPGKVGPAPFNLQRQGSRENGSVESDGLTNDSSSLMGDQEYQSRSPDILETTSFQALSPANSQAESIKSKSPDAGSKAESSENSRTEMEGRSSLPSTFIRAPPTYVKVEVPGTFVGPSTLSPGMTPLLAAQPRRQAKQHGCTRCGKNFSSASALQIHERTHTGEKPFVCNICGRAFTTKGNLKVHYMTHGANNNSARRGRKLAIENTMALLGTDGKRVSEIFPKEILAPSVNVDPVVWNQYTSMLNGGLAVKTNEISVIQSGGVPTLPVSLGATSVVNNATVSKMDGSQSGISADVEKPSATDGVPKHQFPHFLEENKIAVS
Notes: 8-mer, flanks averaged, mean of replicates
With `CACGCGCA` the E-score was -0.246.
For `ACCGACCC`, the E-score was -0.251.
`CAACGCAG` has an E-score of -0.197.
`GCAGGTTA` has an E-score of -0.0879.
With `CTTCCACC` the E-score was -0.0282.
With `CAACGTGC` the E-score was -0.12.
`GATCCGGC` gave an E-score of -0.215.
With `GAACTCCC` the E-score was -0.134.

Study 4 — method: protein-binding microarray; form: double-stranded DNA, one strand shown; sample: in vitro; concentration: 250 nM; notes: 60-bp whole probe; together with: salmon DNA 0.4 mg/ml; baseline: random background probes; direction: higher = stronger binding; all sequences stand within: GCCTAGCAC … GTCTTGATTCGCTTGACGCTGCTG
Target: Interferon regulatory factor 7, full length, phosphomimetic (IRF7, Homo sapiens, UniProt Q92985, residues 1-503, S101K/S471D/S472D/S475D/S476D/S477D/S483D/S484D/S487D)
Construct (chain): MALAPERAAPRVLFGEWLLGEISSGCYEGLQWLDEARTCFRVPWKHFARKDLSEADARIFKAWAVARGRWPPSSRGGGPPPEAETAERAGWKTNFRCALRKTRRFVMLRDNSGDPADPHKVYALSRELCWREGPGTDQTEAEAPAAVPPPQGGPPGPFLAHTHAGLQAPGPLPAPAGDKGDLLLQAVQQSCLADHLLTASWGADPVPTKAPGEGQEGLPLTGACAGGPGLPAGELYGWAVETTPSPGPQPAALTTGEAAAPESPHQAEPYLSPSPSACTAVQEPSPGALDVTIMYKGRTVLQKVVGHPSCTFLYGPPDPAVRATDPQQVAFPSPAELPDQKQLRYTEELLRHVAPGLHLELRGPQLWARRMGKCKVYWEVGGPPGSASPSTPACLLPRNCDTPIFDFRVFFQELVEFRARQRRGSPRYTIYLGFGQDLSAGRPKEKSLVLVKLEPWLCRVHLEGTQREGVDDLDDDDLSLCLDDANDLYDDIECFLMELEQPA
`GACGGTTTCCTACTGCTGTCGTGCTAG` gave a log fluorescence of 1.85 z-score.
For `GACGGGTTCCTACTGCTGACGTGCTAG`, the log fluorescence was 0.157 z-score.
With `TCATCTCTCCCATTCTGACTGTGCTAG` the log fluorescence was 0.894 z-score.
The log fluorescence of `GACGATTTCGGGTTTCGACACGTGCTA` is reported as 3.5 z-score.
`TTAGATATCGGGTATCGACTAGTGCTA` gave a log fluorescence of 0.188 z-score.
`TCATGTCTGGGCATTTTTACTGTGCTA` has a log fluorescence of -0.805 z-score.
`GGCGGACTGGGTATCGGGACGTGCTAG` has a log fluorescence of -0.521 z-score.
`TTAGATATCGGGACTGGTTTAGTGCTA` has a log fluorescence of 0.418 z-score.

Study 5 — effect on: enzyme activity; action: inhibitor; concentration: 20 µM; notes: hit confirmation, with DTT
Target: Replicase polyprotein 1ab, main protease (rep, Severe acute respiratory syndrome coronavirus 2, UniProt P0DTD1)
CC(=O)[O][Pt]([NH2])([Cl])([Cl])([NH]C1CCCCC1)[O]C(C)=O has an inhibition of -13.2%.
The inhibition of C/N=c1/nc(-c2ccccc2)n(-c2ccccc2)s1 is reported as -11.6%.
O=C1C2CC=CCC2C(=O)N1SC(Cl)(Cl)Cl (centres unmarked) has an inhibition of 9.8%.
CC(C)c1cc(CNc2nc(Nc3cc(C4CC4)[nH]n3)cc(N3CCN(C)CC3)n2)on1 has an inhibition of -9.6%.

A few entries again (study 3):
For `ACCGACCC`, the E-score was -0.251.
`CAACGCAG` has an E-score of -0.197.
`GCAGGTTA` has an E-score of -0.0879.
With `CTTCCACC` the E-score was -0.0282.
